Results collected from several papers.
Each numbered part is a random draw from the data of one study; scales do not carry over between parts. Several values in a cell are separate wells, animals, samples, runs or records.
UniProt Q13882, sequence (whole entry, looked up): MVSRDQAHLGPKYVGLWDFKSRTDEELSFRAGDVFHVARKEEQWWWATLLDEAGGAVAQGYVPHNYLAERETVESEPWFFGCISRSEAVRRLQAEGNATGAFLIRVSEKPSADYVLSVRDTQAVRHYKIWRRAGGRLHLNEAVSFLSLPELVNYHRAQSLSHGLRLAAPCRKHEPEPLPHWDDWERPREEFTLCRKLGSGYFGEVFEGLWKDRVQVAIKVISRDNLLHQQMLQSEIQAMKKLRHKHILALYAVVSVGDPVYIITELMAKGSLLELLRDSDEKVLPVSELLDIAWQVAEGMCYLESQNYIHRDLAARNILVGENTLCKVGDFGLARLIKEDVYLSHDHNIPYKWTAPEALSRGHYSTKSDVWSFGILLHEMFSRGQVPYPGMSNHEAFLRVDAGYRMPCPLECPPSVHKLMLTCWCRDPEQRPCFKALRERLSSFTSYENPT
UniProt P35348, sequence (whole entry, looked up): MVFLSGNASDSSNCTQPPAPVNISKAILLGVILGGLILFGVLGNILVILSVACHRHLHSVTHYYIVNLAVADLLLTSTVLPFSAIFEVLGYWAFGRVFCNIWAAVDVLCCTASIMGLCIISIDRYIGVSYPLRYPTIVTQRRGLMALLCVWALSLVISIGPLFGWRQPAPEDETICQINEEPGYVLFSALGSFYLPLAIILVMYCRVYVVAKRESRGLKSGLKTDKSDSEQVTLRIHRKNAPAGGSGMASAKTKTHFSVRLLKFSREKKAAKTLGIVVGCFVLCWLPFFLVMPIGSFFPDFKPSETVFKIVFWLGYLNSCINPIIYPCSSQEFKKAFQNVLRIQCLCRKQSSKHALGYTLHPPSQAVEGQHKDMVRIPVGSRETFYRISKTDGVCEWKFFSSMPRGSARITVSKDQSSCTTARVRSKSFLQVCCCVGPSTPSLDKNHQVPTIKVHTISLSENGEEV
UniProt Q5BJF2, sequence (whole entry, looked up): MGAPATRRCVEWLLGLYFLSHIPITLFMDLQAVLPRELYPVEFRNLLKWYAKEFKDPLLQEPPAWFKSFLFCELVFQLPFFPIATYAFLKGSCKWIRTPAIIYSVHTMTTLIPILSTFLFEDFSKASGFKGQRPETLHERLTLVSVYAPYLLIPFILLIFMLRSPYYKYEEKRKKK
UniProt P15056, sequence (whole entry, unmodified, looked up): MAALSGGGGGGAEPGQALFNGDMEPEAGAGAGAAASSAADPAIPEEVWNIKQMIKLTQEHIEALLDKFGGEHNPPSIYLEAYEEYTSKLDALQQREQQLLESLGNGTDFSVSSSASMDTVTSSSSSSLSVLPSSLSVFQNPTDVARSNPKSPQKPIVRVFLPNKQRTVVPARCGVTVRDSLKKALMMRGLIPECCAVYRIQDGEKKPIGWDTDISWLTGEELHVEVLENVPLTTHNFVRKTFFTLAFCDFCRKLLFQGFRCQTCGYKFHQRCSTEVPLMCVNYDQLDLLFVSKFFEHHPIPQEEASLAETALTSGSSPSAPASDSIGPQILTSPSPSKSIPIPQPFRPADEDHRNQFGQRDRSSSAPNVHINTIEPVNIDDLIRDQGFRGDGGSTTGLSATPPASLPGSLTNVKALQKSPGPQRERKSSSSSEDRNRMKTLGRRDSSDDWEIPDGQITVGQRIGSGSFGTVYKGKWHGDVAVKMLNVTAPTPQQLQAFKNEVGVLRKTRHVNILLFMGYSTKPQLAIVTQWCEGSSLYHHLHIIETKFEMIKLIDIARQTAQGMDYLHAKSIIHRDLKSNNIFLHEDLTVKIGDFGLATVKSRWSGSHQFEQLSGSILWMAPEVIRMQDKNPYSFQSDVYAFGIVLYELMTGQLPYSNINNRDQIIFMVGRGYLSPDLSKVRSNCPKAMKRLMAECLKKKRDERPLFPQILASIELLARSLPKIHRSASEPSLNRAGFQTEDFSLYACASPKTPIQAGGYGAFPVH
UniProt P14416, sequence (whole entry, looked up): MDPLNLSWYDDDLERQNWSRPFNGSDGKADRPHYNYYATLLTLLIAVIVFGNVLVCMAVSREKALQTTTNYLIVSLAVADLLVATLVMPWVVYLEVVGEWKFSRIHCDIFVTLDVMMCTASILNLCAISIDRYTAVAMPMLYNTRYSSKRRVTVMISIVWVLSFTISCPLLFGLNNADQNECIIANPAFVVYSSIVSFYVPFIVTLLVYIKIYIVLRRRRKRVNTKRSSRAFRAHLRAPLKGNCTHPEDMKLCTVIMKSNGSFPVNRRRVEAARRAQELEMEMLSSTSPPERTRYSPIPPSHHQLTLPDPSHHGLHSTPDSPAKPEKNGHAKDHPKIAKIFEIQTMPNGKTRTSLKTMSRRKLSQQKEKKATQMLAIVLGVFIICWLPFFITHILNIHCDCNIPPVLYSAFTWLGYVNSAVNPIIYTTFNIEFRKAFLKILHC
UniProt P28221, sequence (whole entry, looked up): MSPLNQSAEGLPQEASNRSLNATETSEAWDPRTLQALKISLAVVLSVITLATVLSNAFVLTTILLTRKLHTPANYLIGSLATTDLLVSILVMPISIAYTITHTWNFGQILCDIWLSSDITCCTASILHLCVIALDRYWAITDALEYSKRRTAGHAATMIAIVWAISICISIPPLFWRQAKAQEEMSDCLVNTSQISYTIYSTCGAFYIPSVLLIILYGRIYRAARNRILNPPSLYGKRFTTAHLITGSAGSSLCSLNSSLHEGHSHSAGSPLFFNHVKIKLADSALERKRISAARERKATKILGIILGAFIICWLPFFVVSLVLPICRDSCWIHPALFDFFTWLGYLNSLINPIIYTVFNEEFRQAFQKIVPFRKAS
UniProt P28566, sequence (whole entry, looked up): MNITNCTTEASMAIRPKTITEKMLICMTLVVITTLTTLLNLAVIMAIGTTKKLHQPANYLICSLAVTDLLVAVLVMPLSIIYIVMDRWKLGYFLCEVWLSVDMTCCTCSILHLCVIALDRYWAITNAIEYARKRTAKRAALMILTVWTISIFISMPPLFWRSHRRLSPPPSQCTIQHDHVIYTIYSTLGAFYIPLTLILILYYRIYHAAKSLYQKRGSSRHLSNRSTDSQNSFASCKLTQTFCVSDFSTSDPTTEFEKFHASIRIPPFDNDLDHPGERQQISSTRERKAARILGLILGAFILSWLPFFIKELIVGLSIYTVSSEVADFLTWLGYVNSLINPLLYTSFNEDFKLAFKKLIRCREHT
UniProt Q86UX6, sequence (whole entry, looked up): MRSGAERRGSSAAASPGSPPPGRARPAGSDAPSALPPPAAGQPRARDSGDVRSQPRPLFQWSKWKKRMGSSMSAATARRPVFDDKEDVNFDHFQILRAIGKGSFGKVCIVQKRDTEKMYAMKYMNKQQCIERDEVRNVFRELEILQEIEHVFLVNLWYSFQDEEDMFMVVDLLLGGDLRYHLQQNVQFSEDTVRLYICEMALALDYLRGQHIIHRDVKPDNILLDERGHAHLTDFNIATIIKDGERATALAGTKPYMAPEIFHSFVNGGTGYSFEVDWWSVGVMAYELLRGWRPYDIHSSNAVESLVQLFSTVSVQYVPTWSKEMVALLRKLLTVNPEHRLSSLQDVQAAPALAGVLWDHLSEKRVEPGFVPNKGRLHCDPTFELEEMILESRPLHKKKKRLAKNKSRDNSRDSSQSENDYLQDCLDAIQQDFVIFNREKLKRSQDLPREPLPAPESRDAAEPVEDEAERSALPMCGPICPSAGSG
UniProt P35462, sequence (whole entry, looked up): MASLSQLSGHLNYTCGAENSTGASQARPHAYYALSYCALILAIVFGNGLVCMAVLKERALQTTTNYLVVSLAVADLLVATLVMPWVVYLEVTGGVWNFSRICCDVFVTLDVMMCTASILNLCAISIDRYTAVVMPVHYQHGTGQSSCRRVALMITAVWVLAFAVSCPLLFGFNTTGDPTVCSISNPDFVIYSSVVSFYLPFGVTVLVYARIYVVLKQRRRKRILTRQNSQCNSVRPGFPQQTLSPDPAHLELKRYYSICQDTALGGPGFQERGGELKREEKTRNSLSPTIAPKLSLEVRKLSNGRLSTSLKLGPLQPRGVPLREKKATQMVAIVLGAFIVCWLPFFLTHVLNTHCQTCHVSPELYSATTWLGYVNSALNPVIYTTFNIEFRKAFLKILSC
UniProt P21917, sequence (whole entry, looked up): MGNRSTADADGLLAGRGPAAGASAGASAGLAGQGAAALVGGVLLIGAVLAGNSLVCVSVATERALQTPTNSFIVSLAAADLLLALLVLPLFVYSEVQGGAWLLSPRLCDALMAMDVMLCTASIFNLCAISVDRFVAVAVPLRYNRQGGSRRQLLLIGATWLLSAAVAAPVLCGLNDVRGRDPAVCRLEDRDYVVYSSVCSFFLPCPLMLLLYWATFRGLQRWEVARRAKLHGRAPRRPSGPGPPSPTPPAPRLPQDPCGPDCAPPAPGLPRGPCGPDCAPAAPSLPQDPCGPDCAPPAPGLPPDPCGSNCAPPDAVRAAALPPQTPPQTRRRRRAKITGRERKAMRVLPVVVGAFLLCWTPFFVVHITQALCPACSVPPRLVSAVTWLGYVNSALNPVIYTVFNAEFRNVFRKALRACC
UniProt P28222, sequence (whole entry, looked up): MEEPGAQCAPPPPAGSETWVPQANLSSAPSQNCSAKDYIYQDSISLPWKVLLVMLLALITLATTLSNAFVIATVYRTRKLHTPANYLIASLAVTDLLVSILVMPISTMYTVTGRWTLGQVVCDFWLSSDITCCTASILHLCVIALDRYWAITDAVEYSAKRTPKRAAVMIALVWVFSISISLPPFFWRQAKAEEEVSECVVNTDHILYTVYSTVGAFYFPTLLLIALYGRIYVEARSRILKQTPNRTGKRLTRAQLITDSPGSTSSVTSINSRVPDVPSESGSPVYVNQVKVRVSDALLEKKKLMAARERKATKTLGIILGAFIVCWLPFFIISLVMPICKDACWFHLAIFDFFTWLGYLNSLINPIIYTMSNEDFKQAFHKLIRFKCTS

Block 1
SMILES: COc1cc(/C=C(\C#N)C(=O)c2ccc(O)c(O)c2)cc(I)c1O
Mode: inhibitor
Concentration: 5 µM
Measurement: log2 fold change
target = Protein-tyrosine kinase 6 (PTK6, Homo sapiens, UniProt Q13882); assay = kinase activity; setting = cell-based kinome screen; how to read = reference: vehicle; value = -0.05
target = Serine/threonine-protein kinase 32C (STK32C, Homo sapiens, UniProt Q86UX6); assay = kinase activity; setting = cell-based kinome screen; how to read = reference: vehicle; value = 0.327
target = Serine/threonine-protein kinase B-raf (BRAF, Homo sapiens, UniProt P15056, G466E); assay = cell-based kinome profiling; system = human cells; how to read = reference: vehicle control; value = -0.119
target = kinase–CDC37 interaction; assay = kinase–CDC37 binding; system = human cells; setting = oncogenic FIP1L1-PDGFRA fusion; how to read = reference: vehicle; value = 0.441

Block 2
Compound: COc1ccc2c(c1)O[C@@H](c1ccc(OC)c(OC)c1)C[C@H]2NC(=O)C1(c2ccc3c(c2)OC(F)(F)O3)CC1
Concentration: 10 µM
Measurement: inhibition
target = 5-hydroxytryptamine receptor 6 (HTR6, Homo sapiens, UniProt P50406); read-out = binding; method = radioligand binding; value = -15.9%
target = Sigma non-opioid intracellular receptor 1 (SIGMAR1, Homo sapiens, UniProt Q99720); read-out = binding; method = radioligand binding; value = 53%
target = 5-hydroxytryptamine receptor 1B (HTR1B, Homo sapiens, UniProt P28222); read-out = binding; method = radioligand binding; value = -1%
target = Alpha-1A adrenergic receptor (ADRA1A, Homo sapiens, UniProt P35348); read-out = binding; method = radioligand binding; value = -12.5%
target = Sigma intracellular receptor 2 (TMEM97, Homo sapiens, UniProt Q5BJF2); read-out = binding; method = radioligand binding; value = 85.3%
target = Alpha-2A adrenergic receptor (ADRA2A, Homo sapiens, UniProt P08913); read-out = binding; method = radioligand binding; value = 14.9%
target = D(3) dopamine receptor (DRD3, Homo sapiens, UniProt P35462); read-out = binding; method = radioligand binding; value = -9.23%
target = 5-hydroxytryptamine receptor 1D (HTR1D, Homo sapiens, UniProt P28221); read-out = cell-free assay; value = 6.1%
target = Histamine H3 receptor (HRH3, Homo sapiens, UniProt Q9Y5N1); read-out = binding; method = radioligand binding; value = 10.4%
target = Muscarinic acetylcholine receptor M5 (CHRM5, Homo sapiens, UniProt P08912); read-out = binding; method = radioligand binding; value = 16.1%
target = D(4) dopamine receptor (DRD4, Homo sapiens, UniProt P21917); read-out = binding; method = radioligand binding; value = -6.5%
target = D(2) dopamine receptor (DRD2, Homo sapiens, UniProt P14416); read-out = binding; method = radioligand binding; value = -7.27%
target = 5-hydroxytryptamine receptor 1E (HTR1E, Homo sapiens, UniProt P28566); read-out = cell-free assay; value = 1.27%

Block 3
Species: mouse
Medium: microsomes or S9
Concentration: 2 µM
Time: 0.5 h
Measurement: remaining compound
Structure (SMILES) = COc1cc(C(=O)Nc2cnn(CCCC(=O)O)c2)cc(OC)c1OC; value = > 99.9%
Structure (SMILES) = NC1=NN(c2ccc(Oc3ccccc3)c(S(=O)(=O)O)c2)C(=O)C1; value = > 100%
Structure (SMILES) = Cn1cc(-c2noc(C(O)C3CCCCCCC3)n2)nn1 (stereo not shown); value = 40.5%
Structure (SMILES) = OC1CCCC1Oc1cc(-n2nc3c(c2Cl)CCCC3)c(F)cc1Cl (stereo not shown); value = 0%
Structure (SMILES) = COc1cc(OC)c(C2Nc3cc(C)c(C)cc3NC3=C2C(=O)CC(C)(C)C3)cc1OC (stereo not shown); value = 35.6%
Structure (SMILES) = CNC(=O)COc1cccc2c1[C@@H]1O[C@H](C)CC[C@H]1[C@](C)(CCCC(C)C)O2; value = 74%
Structure (SMILES) = OC1=C2C(=Nc3ccccc3NC2c2cccnc2)CC(c2ccccc2)C1 (stereo not shown); value = 44.9%
Structure (SMILES) = Cc1ccc(NC(=O)C(C)C(=O)Nc2ccc(C)cc2)cc1; value = 17.5%

Block 4
Structure (SMILES): CC(C)(C(=O)O)[C@H](NC(=O)Cc1cccc(I)c1)c1ccc2oc(=O)[nH]c2c1
Method: Incucyte 3D growth
Concentration: 30 µM
Reading: higher = more growth
Measurement: spheroid area
cell line = A375; time = 90 h; value = 2.51e+07 a.u. and 5.58e+07 a.u. and 7.2e+07 a.u. and 5.17e+07 a.u. and 7.07e+07 a.u. and 5.44e+07 a.u.
cell line = PC-9; time = 102 h; value = 7.44e+08 a.u. and 7.22e+08 a.u. and 7.49e+08 a.u. and 7.61e+08 a.u. and 7.56e+08 a.u. and 7.55e+08 a.u.
cell line = MEL-JUSO; time = 354.52 h; value = 4.04e+07 a.u. and 4.18e+07 a.u. and 5.77e+07 a.u. and 4.31e+07 a.u. and 5.07e+07 a.u. and 2.94e+07 a.u.
cell line = MEL-JUSO; time = 300.52 h; value = 4.01e+07 a.u. and 2.38e+07 a.u. and 2.57e+07 a.u. and 2.21e+07 a.u. and 2.55e+07 a.u. and 2.44e+07 a.u.
cell line = PC-9; time = 96 h; value = 6.88e+08 a.u. and 7.15e+08 a.u. and 7.07e+08 a.u. and 7.16e+08 a.u. and 7.12e+08 a.u. and 7.09e+08 a.u.
cell line = IPC-298; time = 0 h; value = 1.31e+07 a.u. and 1.35e+07 a.u. and 1.48e+07 a.u. and 1.54e+07 a.u. and 1.43e+07 a.u. and 1.63e+07 a.u.

Repeated from above (block 3):
Structure (SMILES) = Cn1cc(-c2noc(C(O)C3CCCCCCC3)n2)nn1 (stereo not shown); value = 40.5%
Structure (SMILES) = OC1CCCC1Oc1cc(-n2nc3c(c2Cl)CCCC3)c(F)cc1Cl (stereo not shown); value = 0%
Structure (SMILES) = COc1cc(OC)c(C2Nc3cc(C)c(C)cc3NC3=C2C(=O)CC(C)(C)C3)cc1OC (stereo not shown); value = 35.6%
